Results of several laboratories.
Lines come from different studies, so protocols differ. ± marks the error that the study gave.
Genome polyprotein NS2B-NS3 protease: Genome polyprotein, NS2B-NS3 protease (ZIKV, UniProt A0A024B7W1)
Chain of UniProt A0A024B7W1 (whole entry, looked up): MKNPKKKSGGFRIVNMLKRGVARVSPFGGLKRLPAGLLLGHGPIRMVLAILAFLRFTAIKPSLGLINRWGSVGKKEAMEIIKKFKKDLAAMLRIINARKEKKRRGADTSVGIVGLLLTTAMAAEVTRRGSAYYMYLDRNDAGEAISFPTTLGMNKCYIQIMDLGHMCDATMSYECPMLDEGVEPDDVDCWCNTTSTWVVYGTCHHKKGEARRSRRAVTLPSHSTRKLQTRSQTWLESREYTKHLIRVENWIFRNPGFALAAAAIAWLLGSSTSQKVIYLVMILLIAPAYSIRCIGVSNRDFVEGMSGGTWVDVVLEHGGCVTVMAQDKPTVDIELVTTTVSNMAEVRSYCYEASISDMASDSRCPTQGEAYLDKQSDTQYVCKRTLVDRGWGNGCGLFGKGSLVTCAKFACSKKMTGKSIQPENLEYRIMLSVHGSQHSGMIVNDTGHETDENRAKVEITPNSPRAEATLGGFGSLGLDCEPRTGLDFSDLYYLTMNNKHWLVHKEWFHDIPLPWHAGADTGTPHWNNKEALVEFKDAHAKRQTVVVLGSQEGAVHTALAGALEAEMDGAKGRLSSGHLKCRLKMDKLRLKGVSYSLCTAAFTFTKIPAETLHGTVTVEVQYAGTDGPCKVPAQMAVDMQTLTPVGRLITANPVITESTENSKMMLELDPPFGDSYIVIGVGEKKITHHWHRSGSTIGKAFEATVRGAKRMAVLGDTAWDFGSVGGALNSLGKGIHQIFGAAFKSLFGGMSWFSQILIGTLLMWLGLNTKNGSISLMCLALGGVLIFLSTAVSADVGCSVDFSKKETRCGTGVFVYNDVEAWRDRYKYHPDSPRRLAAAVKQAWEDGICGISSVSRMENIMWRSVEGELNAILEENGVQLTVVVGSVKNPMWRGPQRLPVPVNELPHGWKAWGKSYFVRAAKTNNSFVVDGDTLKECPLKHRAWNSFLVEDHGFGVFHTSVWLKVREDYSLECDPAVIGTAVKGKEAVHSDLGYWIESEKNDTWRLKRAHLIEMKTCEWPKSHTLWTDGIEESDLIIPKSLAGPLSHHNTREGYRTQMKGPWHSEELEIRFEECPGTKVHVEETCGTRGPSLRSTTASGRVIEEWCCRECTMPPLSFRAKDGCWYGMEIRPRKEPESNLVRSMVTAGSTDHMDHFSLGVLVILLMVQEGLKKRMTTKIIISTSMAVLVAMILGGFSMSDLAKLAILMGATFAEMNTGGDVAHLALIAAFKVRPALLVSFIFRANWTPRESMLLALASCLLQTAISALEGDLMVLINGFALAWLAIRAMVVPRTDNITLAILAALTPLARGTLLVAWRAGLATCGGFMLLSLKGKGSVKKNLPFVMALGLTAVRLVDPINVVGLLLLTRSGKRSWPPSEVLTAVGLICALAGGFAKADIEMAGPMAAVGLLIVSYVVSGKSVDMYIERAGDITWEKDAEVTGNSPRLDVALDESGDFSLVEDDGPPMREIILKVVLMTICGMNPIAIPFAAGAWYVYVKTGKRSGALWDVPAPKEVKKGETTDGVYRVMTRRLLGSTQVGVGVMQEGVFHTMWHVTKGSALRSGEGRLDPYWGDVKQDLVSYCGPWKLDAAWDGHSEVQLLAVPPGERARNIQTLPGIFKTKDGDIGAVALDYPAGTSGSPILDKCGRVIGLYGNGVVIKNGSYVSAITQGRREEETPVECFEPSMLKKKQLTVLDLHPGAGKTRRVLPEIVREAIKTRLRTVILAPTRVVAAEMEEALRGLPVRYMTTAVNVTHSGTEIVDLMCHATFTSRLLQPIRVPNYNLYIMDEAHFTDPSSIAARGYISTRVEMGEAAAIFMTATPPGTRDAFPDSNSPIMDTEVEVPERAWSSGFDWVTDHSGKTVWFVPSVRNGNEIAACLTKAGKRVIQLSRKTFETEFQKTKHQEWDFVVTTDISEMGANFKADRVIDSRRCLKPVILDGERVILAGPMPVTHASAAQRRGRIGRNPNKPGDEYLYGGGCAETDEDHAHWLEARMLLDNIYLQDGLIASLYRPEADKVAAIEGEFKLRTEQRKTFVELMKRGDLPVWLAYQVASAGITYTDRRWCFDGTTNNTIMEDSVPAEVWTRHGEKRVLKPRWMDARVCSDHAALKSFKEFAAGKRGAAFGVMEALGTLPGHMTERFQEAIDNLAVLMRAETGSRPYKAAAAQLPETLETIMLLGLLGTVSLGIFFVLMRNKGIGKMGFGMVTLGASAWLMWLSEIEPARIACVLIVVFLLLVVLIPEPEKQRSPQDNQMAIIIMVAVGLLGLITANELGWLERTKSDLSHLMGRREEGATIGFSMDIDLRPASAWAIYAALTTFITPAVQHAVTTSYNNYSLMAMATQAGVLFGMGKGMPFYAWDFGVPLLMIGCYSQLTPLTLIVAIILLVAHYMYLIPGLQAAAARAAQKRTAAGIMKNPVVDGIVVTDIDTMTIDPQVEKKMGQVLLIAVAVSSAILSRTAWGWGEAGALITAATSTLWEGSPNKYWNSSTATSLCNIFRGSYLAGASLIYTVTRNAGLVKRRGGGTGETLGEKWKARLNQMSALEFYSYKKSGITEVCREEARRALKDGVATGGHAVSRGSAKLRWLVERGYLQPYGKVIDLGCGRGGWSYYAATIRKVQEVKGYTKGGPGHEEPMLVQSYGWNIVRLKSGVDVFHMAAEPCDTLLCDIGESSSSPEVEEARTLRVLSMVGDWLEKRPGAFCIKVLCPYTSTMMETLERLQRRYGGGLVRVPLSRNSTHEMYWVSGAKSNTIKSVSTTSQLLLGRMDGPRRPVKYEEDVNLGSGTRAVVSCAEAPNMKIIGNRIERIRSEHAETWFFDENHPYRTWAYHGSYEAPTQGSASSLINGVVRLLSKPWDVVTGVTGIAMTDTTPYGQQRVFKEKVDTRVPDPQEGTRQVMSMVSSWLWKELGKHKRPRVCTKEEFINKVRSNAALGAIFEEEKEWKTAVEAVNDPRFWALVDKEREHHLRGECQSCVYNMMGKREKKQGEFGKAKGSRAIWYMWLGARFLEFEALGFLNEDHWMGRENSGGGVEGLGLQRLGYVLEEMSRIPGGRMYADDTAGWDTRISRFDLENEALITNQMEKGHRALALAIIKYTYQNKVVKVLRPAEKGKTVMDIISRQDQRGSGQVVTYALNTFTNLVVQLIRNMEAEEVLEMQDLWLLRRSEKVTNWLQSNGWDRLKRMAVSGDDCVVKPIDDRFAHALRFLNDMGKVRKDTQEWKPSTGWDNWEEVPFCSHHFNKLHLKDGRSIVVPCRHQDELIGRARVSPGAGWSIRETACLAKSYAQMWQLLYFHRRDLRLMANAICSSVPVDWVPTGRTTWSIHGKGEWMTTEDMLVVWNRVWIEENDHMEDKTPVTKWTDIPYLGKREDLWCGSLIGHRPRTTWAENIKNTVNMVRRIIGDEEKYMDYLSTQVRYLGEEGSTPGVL
Tripartite terminase subunit 3 C-terminal nuclease domain: Tripartite terminase subunit 3, C-terminal nuclease domain (Human betaherpesvirus 5, UniProt P16732)
Chain of UniProt P16732 (whole entry, looked up): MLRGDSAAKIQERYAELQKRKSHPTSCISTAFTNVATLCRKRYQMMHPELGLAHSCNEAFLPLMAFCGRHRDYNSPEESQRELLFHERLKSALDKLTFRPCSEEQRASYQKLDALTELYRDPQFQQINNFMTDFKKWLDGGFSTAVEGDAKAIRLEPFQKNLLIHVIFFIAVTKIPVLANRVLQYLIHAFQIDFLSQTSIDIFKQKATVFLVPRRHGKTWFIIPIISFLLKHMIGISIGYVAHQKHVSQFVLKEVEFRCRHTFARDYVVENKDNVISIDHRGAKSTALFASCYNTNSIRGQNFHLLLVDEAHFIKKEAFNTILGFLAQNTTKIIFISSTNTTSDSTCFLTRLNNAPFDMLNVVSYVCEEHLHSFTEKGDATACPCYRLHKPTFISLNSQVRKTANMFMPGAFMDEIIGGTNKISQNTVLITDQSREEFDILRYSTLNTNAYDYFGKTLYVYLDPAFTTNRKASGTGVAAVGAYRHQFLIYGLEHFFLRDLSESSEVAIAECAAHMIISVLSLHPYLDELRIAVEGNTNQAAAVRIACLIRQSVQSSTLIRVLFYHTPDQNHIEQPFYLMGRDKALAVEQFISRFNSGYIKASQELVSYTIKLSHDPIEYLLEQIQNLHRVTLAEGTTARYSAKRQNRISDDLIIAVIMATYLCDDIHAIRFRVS
DDB1/DCAF12: DDB1/DCAF12 (Homo sapiens, UniProt Q16531+Q5T6F0)
Chain of UniProt Q5T6F0 (whole entry, looked up): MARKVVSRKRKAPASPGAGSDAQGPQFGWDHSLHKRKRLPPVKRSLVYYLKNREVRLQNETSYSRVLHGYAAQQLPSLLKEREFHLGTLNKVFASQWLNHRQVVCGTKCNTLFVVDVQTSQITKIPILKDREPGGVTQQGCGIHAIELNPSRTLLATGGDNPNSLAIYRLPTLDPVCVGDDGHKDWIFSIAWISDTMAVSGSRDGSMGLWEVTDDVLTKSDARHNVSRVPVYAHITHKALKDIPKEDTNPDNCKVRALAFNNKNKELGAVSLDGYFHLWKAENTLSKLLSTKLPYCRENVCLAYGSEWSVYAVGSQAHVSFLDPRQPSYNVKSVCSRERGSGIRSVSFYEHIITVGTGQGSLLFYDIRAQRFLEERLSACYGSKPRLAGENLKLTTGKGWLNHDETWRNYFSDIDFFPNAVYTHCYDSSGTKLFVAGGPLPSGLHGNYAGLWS
Chain of UniProt S0F332 (whole entry, looked up): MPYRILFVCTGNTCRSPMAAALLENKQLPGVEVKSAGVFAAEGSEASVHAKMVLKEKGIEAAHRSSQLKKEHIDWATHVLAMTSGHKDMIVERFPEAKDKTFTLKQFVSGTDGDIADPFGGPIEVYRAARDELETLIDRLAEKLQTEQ
Chain of UniProt Q99571 (whole entry, looked up): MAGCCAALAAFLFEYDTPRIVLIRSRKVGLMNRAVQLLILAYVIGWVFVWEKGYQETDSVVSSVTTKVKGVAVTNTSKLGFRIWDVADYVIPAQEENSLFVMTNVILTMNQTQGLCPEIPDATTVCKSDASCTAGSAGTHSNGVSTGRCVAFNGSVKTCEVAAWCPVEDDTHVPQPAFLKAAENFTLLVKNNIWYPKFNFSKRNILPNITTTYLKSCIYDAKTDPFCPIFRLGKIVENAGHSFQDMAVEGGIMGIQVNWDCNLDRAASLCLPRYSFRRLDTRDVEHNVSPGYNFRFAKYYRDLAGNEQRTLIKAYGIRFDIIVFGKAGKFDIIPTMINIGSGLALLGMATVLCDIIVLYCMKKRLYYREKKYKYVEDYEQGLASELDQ

| Compound | target | assay | system | conditions | IC50 |
| --- | --- | --- | --- | --- | --- |
| O=c1c2ccccc2[nH]c(=S)n1-c1ccccc1 | Pancreatic alpha-amylase (Homo sapiens, UniProt P04746) | enzyme activity, inhibitor |  |  | 580 ± 3.54 µM |
| N=C(N)NCC(=O)O | Protein-arginine-phosphatase (ywle, Geobacillus stearothermophilus, UniProt S0F332) |  |  |  | > 1000 µM |
| COc1cc(Nc2ncc(F)c(Nc3ccc4c(n3)NC(=O)C(C)(C)O4)n2)cc(OC)c1OC | melatonin receptor (non-selective) |  |  |  | > 10 µM |
| O=C(Nc1nc2nc(C(F)(F)F)cc(C(F)(F)F)c2s1)c1cc2ccccc2o1 | Genome polyprotein NS2B-NS3 protease | inhibitor |  |  | 0.94 ± 0.05 µM |
| O=c1[nH]c2c(-c3ccccc3)csc2c(=O)n1O | Tripartite terminase subunit 3 C-terminal nuclease domain | endonuclease activity, inhibitor |  | with: dsDNA substrate | 0.36 ± 0.02 µM |
| COc1ccc2[nH]c3c(c2c1)CCN(C)CC3 | Nicotinic acetylcholine receptor alpha9/alpha10 (Rattus norvegicus, UniProt P43144+Q9JLB5) | ACh-evoked current, antagonist, two-electrode voltage clamp | Xenopus laevis oocytes | holding potential -80 mV, with: 10 µM acetylcholine | 2.9 ± 0.2 µM |
| CCC(C(=O)Nc1cc(NC2COC2)ccc1C)n1cc(Br)cc2nc(SCc3ccc(F)cc3)nc1-2 (stereo not shown) | USP1 (Homo sapiens, UniProt O94782) | enzyme activity |  |  | > 100 µM |
| Fc1ccc(N2CCNCC2COc2ccc3c(c2)OCO3)cc1 (stereo not shown) | P2X purinoceptor 4 (P2RX4, Homo sapiens, UniProt Q99571) | calcium flux, inhibitor, Ca2+ flux | human cells |  | 15.1 ± 7.55 µM |
| NCCOCC(=O)N1CCCC(C(=O)NCc2nc(-c3ccc(-c4ccc(F)cc4)cc3)cs2)C1 (stereo not shown) | 20S proteasome (Plasmodium falciparum, UniProt A0A5K1K7U1+Q8I261+Q8IJT1) |  |  | without WLW-vs, with: Succ-LLVY-AMC 20 µM | 0.072 µM |
| COc1ncccc1-c1cnn2ccc(N3CCN(C(=O)OC(C)C)CC3)nc12 | NR3C1 (Homo sapiens, UniProt P04150) | liability screen |  |  | > 150 µM |
| CC[C@H](C)[C@H](NC(=O)[C@@H](N)CC(=O)O)C(=O)N[C@@H](CCCNC(=N)N)C(=O)N[C@@H](CCCCN)C(=O)N1CCC[C@H]1C(=O)NCC(=O)N[C@@H](CCC(=O)O)C(=O)N[C@@H](CO)C(=O)N[C@@H](C)C(=O)N[C@@H](CCC(=O)O)C(=O)O | DDB1/DCAF12 | binding, TR-FRET competition |  |  | 53.8 µM |
| COCCn1c2nc(=O)n(-c3ccccc3)c(=O)c-2nc2ccccc21 | Genome polyprotein, NS5 MTase domain (ZIKV, UniProt A0A024B7W1) | binding, displacement | Zika virus |  | 4.9 µM |
| C[C@H]1CN(c2n[nH]c3nc(N[C@H]4CC[C@H](NS(=O)(=O)CCC(F)(F)F)CC4)ncc23)CCO1 | AP-2 complex subunit sigma (Homo sapiens, UniProt P53680) | biochemical |  |  | ≥ 20 µM |
| O=c1[nH]c2cc(-c3ccc(Cl)cc3)ccc2c(=O)n1O | Tripartite terminase subunit 3 C-terminal nuclease domain | enzyme activity, inhibitor |  |  | 6.7 ± 1.2 µM |
| COc1ccc(-c2cc3c(C#Cc4cccnc4)c[nH]c3nn2)cc1OC | AAK1 (Homo sapiens, UniProt Q2M2I8) |  |  |  | 0.104 µM |
| CCCCc1cc2c(cc1C(=C1CC1)c1ccc(C(=O)O)cc1)C(C)(C)CCC2(C)C | RXRA (Homo sapiens, UniProt P19793) | binding |  | with: [3H]9-cis-retinoic acid | 0.45 µM |
| CCCC[C@H](NC(=O)[C@H](C[SeH])NC(=O)CNC(=O)[C@H](CCCCN)NC(=O)[C@H](CCCNC(=N)N)NC(=O)[C@H](CCCCN)NC(=O)[C@H](C[SeH])NC(=O)CNC(=O)[C@H](CCCCN)NC(=O)[C@H](CCCNC(=N)N)NC(=O)[C@H](CCCCN)NC(=O)[C@H](C[SeH])NC(=O)[C@H](C)NC(C)=O)C(N)=O | Genome polyprotein NS2B-NS3 protease | enzyme activity, inhibitor | Zika virus | 10 min preincubation, pH 8.5, 20% glycerol, with: 5 µM Bz-Nle-Lys-Lys-Arg-AMC | 0.067 µM |
| Cc1csc2c(=O)n(O)c(=O)[nH]c12 | Tripartite terminase subunit 3 C-terminal nuclease domain | endonuclease activity, inhibitor |  | with: dsDNA substrate | 0.76 ± 0.04 µM |
| CN(C)C(=O)C(CCN1CCC(O)(c2ccc(Cl)cc2)CC1)(c1ccccc1)c1ccccc1 | Calcium-activated potassium channel subunit alpha-1, with LRRC26 γ1 subunit (KCNMA1, Homo sapiens, UniProt Q12791) | BK channel conductance, inhibitor, inside-out patch clamp |  | BKα/γ1, Vm 90 mV, nominally Ca2+-free | 2.04 ± 0.32 µM |
| CC[C@H](C)[C@H](NC(=O)[C@@H](N)CC(=O)O)C(=O)N[C@@H](CCCNC(=N)N)C(=O)N[C@@H](CCCCN)C(=O)N1CCC[C@H]1C(=O)NCC(=O)N[C@@H](CCC(=O)O)C(=O)N[C@@H](CO)C(=O)N[C@@H](CCC(=O)O)C(=O)N[C@H](C(=O)O)[C@@H](C)O | DDB1/DCAF12 | binding, TR-FRET competition |  |  | 47.2 µM |
| C[C@@H]1CC[C@H]2[C@@H](C)C(=O)O[C@@H]3O[C@@]4(C)CC[C@@H]1[C@]32OO4 | MT-CYB, bc1 complex (Plasmodium falciparum, UniProt Q02768) | enzyme activity, inhibitor |  |  | > 1 µM |
| COc1cc2c3cc1Oc1cc(ccc1O)C[C@@H]1c4c(cc(OC)c(O)c4Oc4ccc(cc4)C[C@@H]3N(C)CC2)CC[N+]1(C)C | Chrnd/Chrna1/Chrne (Mus musculus, UniProt P02716+P04756+P20782) | endplate current peak height, inhibitor, two-electrode voltage clamp | mouse hemidiaphragm | 2 d, -80 mV, AChE intact, myasthenia IgG-treated mice | 0.107 µM |
| Cc1cc(C)c2sc(NC(=O)c3ccco3)nc2n1 | Genome polyprotein NS2B-NS3 protease | inhibitor |  |  | 63 ± 1 µM |
| CC(C)C[C@H](NC(=O)[C@H](C)NC(=O)[C@H](CCC(=O)O)NC(=O)[C@@H](N)C(C)C)C(=O)N[C@@H](CC(C)C)C(=O)N[C@@H](CC(N)=O)C(=O)O | Protein cereblon, with DDB1 (CRBN, Homo sapiens, UniProt Q96SW2) | binding, ligand, TR-FRET displacement |  |  | 5.93 µM |
| Nc1nnc(S)[nH]1 | Histone acetyltransferase RTT109, with Vps75 (Saccharomyces cerevisiae, UniProt Q07794) | enzyme activity, inhibitor, HTS, CPM-based, dose response |  |  | > 125 µM |
